Results pooled from the literature.
Every numbered part comes from another study and shows a few of its results, in no order.

Series 1 — technique: protein binding microarray; form: double-stranded DNA, one strand shown; sample: in vitro; tested at: not given; baseline: not given; direction: higher = stronger binding
Target: Histone acetyltransferase KAT6A, winged helix 1, GST fusion (KAT6A, Homo sapiens, UniProt Q92794, residues 1-85)
Notes: 8-mer, flanks averaged, mean of 2 arrays, mostly near background
Construct (chain): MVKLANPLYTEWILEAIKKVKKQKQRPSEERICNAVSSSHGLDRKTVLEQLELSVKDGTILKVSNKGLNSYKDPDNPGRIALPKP
Sequence | E-score
ACCGCTCA | 0.229
CATTGTCC | 0.00412
GCATCACA | 0.00276
AGGAGCGC | 0.275
GTTTTAGA | -0.148
ATGTCAAA | -0.0757
ATAAGGAG | -0.00876
TATTGTAA | -0.0332
CCTTATCC | -0.0826
ACTCAGTC | -0.21
CAAACATC | -0.188
AGGCCATA | -0.0514
AGACCCAT | -0.0891
AGCATGGG | -0.186
CCCCACCC | -0.132
CACGGGCG | 0.386
GCGGGGAC | 0.333
TCTACAAA | -0.0969
CATTTAAG | -0.295
ATTGTCGG | 0.141
GGAGCTCC | 0.0471
AAAGTTTA | -0.0846
ATGCACTC | 0.155
CCGGTTTA | 0.194
GAAGACTC | -0.0777

Series 2 — Molecule: PCHRRVLCFDSTT; effect on: cyclin docking binding; technique: competitive growth deep sequencing; form: peptide; notes: median of replicates; direction: direction not given
target | sample | Cln2-subtracted enrichment score
human cyclin A2 | yeast cyclin A2-Cln2 system | 1.7
human cyclin E1 | yeast cyclin E1-Cln2 system | 2.3
human cyclin B1 | yeast cyclin B1-Cln2 system | 0.4

Series 3 — technique: RNA Bind-n-Seq; form: RNA; sample: in vitro; tested at: 200 nM; notes: whole 134-nt RNA, ends assumed; with: 150 mM LiCl; baseline: input library; direction: higher = stronger binding; library: 7-deaza-guanosine replaces G
Target: Fragile X messenger ribonucleoprotein 1, C-terminal low-complexity region (Fmr1, Mus musculus, UniProt P35922)
Constant ends, left off below: GGGAGUUCUACAGUCCGACGAUC … UGGAAUUCUCGGGUGUCAAGG
Sequence | log2 enrichment
CUGUGCUACACAUCGUAUGUACCGAAUCGGGCCCCCCCGGGGCCCCCCCGGGCCCCCCCGGGAAAGUAUUAUGUUACGCCGUUCGGAUCU | -1.51
CACAGACAACACGCACCCACACAGACACAGAGGGAAGGAGUUGGGAUGGGGACAGGGUGCACAGCAGGGCGGGGUAGGACCCCAGCCCCU | -0.708
GCAGGAAGUAAAAACAAAUGGAAAUGCUUCGGAUAGUGGUAGGGGUGGGGGUUGCUAAGGAAAGGGUGGGAUGGGAGUGGGUAAAGAGUU | 1.74
GCAGGAAGUAAAAACAAAUGGAAAUGCUUCGGAUAGUGGCAGGGGUGGGGGUUGCUAAAAAAAGGGUGGGAUGGGAGUGGGUAAAGAGUU | 1.59
UCCAUGCAGGUGGGCAUCUUUGGGAAGUGGGGCAAGGGGGGGAUAGGGAGGGGGGUAACACUUUGGGAACAGGUGGUCCCAGGUCGUUUC | 1.32
CCUCAAGUCCUGUGCUACACAUCGUAUGUACCGAAUCGGUGGUUUUUGGAGGAAAGUAUUAUGUUACGCCGUUCGGAUCUGCACUUCCAG | 0.545
CACAGACAACACGCACCCACAAAGACACAGAGGGAAGGGGUUGGGAUGGGGACAGGGUGCACAGCAGGGCGGGGUAGGACCCCAGCCCCU | 0.302
UAACUUUAGAGGAGGAUCUGAUGGAUAUGGCAGUGGACGUGUAUUUGGGGAUGGCUAUAAUGGGUAUGGAGGAGGACCUGGAGGUGGCAA | 0.284
CACAGACAACACGCACCCACACAGACACAGAGGGAAGGGGUUGGGAUGGGGAAAAGGUGCACAGCAGGGCGGGGUAGGACCCCAGCCCCU | 0.554
CUCAAGUCCUGUGCUACACAUCGUAUGUACCGAAUCGGAAAAAGGUGGUUUGGAAAGUAUUAUGUUACGCCGUUCGGAUCUGCACUUCCA | -0.697
UCCAAACCCAAGAAAAAGAAAUCUUUUUCCAAGGAGGAGUUGAUGAGUAGCGAUCUUGAAGAGACCGCUGGCAGCACCAGUAUUCCCAAG | -1.78

Series 4 — technique: universal PBM; form: double-stranded DNA, one strand shown; sample: in vitro; tested at: not given; direction: higher = stronger binding
Target: Sal-like protein 4, full length isoform B (SALL4, Homo sapiens, UniProt Q9UJQ4-2, residues 1-616)
Notes: 8-mer, flanks averaged, mean of replicates
Sequence | E-score
GGTGTAAC | -0.0207
AGGGGGCG | -0.207
AAGAAAAT | 0.244
CGGGATCC | -0.238
CCAGCCCC | -0.133
CACCGGTG | -0.273
AACATAGG | 0.122
CTCTTATA | 0.278
CTCGGGTA | -0.11
GCCGGTCC | -0.475
GCCGCACA | -0.0901
AGCCGATG | -0.258
ACAGTTTG | 0.0255
TAATAAGA | 0.348
AACGTGTC | -0.0394
CACGTACA | 0.0638
CGGAATTC | -0.1
CTTTACGA | 0.148
AGTAACTG | 0.0939
AAGTTAGA | 0.108
AATCTGGA | -0.00384
AGTATCAC | 0.0773
TCATCGCA | 0.102

Series 5 — technique: RNA Bind-n-Seq; form: RNA; sample: in vitro; tested at: 365 nM; baseline: no-protein control; direction: higher = stronger binding
Target: RNA binding protein fox-1 homolog 2, RRM domain, GST-SBP tag (RBFOX2, Homo sapiens, UniProt O43251-10, residues 100-194)
Notes: natural RNA segment, single round, ends assumed
Constant ends, left off below: GGGAGUUCUACAGUCCGACGAUC … UGGAAUUCUCGGGUGCCAA
Residues (chain): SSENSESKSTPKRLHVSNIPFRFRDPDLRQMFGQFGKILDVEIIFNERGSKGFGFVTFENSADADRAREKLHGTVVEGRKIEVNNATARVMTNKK
Sequence | RBNS enrichment (R)
CAUUCCUGCAUUCUGCCAUAGGAAUCACAACUUCCCACAUCAGGCCAUGCUUGCCUAAGACCUCGUUCUGUUCUCCCAUAAGGCCGUCCUUCCCACAGUACCUUAAGAUU | 0.65
GCUUUCCUGGGCCUCUCAGUUGAACAAAGCAGCAAAACAAAGGCAGUUUUAUAUGAAAGAUUAGAAGCCUGGAAUAAUCAGGCUUUUUAAAUGAUGUAAUUCCCACUGUA | 0.433
AUGGGCUUUCUUCACCUGCUCUAGGUGCAAAGGCAUGUUGGGAAAGAGAUGGAUGUUGGGGAGGAAGAGAGGAGAUGGAUUUCAGUUGGGAGUUAGGAGGAGAGUAGGUG | 6.82
AGCAGGAUACAGGGCGAGGGAUGUGGCAGGUGAGGGGGCUCCCGCCUGUGCCCCUUCUCCUCACCAUGUCUCCCCCACCCUGCCUCAGUUCUCCGUUCCCCUUCAUCUCC | 0.779
AAGAUGAUGGACUGCCUGAGGAUGGGCCCACCCACUUCGUGCCUCAUGGAGUUCAGUCCUAUGCACUACUCUCUCUGGAUGGUGUGUGAUUGGAUGAGUGCCAUUUCUAU | 0.251
GGCCCCUUCCUCGUCCUUUCCUUUUGCCUUUGAGACCAAACCAAGUGCUUCCAAAUUCUUUUGGUGCAAUUGAGGAGAUAUGCCAGAUGCUUAAACACAUUUAAUUGCUG | 0.346
ACAGUGAGAGGUACCUUCCUUCUCUUUCUCAUACACACAGAUCACUAGCAAGGACUAAAGAAUUUUAUAUCAAAAUUCUCCAGGCAUGUACCAGUUCGGGUUAAUAAAAU | 0.84
GUAAUGUAUAUAGUCGUAUAUGUAUUCUAGCAAGAAAAACAUAUUUAUUUUGACAAAGGGGAACACUGACUUUCUGAAGGAUUCAGAAAGAACCUUAGUGAAAGGUUCUC | 0.414
GCCAUCCCCAUCAGGACCUCAGACCUGGGGUACCUGAACUCUGUCCCUCUGCUGCCGCCUCUGUCUGGAAAUUGGACCAGAAUUCUGAUGUCCCUCCAGCCUCCUCCCCC | 0.43
CUUAUCCAUAAAUAACUACAUGACAGCAUUAAAAUCUGUAGCAAAGAGAUAUAAACUCUAGAGUGAGUCUAUUGGGAAUCAGCAGAUUAUACAUACCUGGGGCAUCUUCU | 0.689
AGAGGCCUGGCUUGCCUUGCCCAGUGCUGCCUAUAGCAUCCUCCCAGGGAGGCUUGCCCUGUGCCAGAAAACAAGAGGCCACCAUAUGCUUCCAAGUUGACAGGCAAUUC | 0.361
GAAGCCAACCAUAUGCUCCUGCCUUGCCGAUAGGUUUUAUUAUUUUUUUUAAAUUAAUGAAAAUAUGUAAUAUUAAUAGUUAUUAUUUACUGGUGCAGAUGGUUGACAUU | 0.624

Series 6 — target: UBE2E2 UBC core domain (UniProt Q96LR5); technique: yeast two-hybrid; sample: yeast; notes: mostly zero background; baseline: not given; direction: higher = stronger interaction
Chain of UniProt Q96LR5 (whole entry, looked up): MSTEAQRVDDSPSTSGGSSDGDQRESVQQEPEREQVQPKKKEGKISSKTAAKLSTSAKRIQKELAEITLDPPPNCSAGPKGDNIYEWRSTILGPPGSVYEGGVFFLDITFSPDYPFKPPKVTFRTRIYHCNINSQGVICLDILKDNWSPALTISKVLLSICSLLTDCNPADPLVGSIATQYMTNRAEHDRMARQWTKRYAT
B1: ZNRF4 RING domain (UniProt Q8WWF5); chain VRTFTWHNDLCAICLDEYEEGDQLKILPCSHTYHCKCIDPWFSQAPRRSCPVCKQSVAATEDSF
B2: ZMYND11 RING domain (UniProt Q15326); chain DEIDWETENHDWYCFECHLPGEVLICDLCFRVYHSKCLSDEFRLRDSSSPWQCPVCRSIKKKNTNKQEM
B3: NFX1 RING domain (UniProt Q12986); chain IEQLTTEKYECMVCCELVRVTAPVWSCQSCYHVFHLNCIKKWARSPASQADGQSGWRCPACQNVSAHVPNTY
B4: MARCHF1 RING domain (UniProt Q8TCQ1); chain TAPRSQSRLSVCPSTQDICRICHCEGDEESPLITPCRCTGTLRFVHQSCLHQWIKSSDTRCCELCKYDFIMETKLKPLRKWE
B5: RNF103 RING domain (UniProt O00237); chain WPADMLHCTECVVCLENFENGCLLMGLPCGHVFHQNCIVMWLAGGRHCCPVCRWPSYKKKQPY
B6: CNOT4 RING domain (UniProt O95628); chain MSRSPDAKEDPVECPLCMEPLEIDDINFFPCTCGYQICRFCWHRIRTDENGLCPACRKPYPED
B7: RING1 RING domain (UniProt Q06587); chain SPRSLHSELMCPICLDMLKNTMTTKECLHRFCSDCIVTALRSGNKECPTCRKKLVSKRSLR
B8: VPS8 RING domain (UniProt Q8N3P4); chain TRGLNPKQDYCSICLQQYKRRQEMADEIIVFSCGHLYHSFCLQNKECTVEFEGQTRWTCYKCSSSNKVGKLSE
B9: RNF186 RING domain (UniProt Q9NXI6); chain HSGSTECDLECLVCREPYSCPRLPKLLACQHAFCAICLKLLLCVQDNTWSITCPLCRKVTAVPGGLI
B10: RNF182 RING domain (UniProt Q8N6D2); chain AESQASDELECKICYNRYNLKQRKPKVLECCHRVCAKCLYKIIDFGDSPQGVIVCPFCRFETCLPDDEV
B11: TRIM41 RING domain (UniProt Q8WV44); chain PVQTLQEEAVCAICLDYFTDPVSIGCGHNFCRVCVTQLWGGEDEEDRDELDREEEEEDGEEE
Molecule | lacZ reporter activity
B1 (ZNRF4 RING domain) | 0
B2 (ZMYND11 RING domain) | 0
B3 (NFX1 RING domain) | 0
ASEEEFQFLRCQQCQAEAKCPKLLPCLHTLCSGCLEASGMQCPICQAPWPLGADTP (PML RING domain (UniProt P29590)) | 0
B4 (MARCHF1 RING domain) | 0
B5 (RNF103 RING domain) | 3230
B6 (CNOT4 RING domain) | 0
B7 (RING1 RING domain) | 0
FAEQPSVKLCCQLCCSVFKDPVITTCGHTFCRRCALKSEKCPVDNVKLTVVVNNI (TRAF7 RING domain (UniProt Q6Q0C0)) | 0
B8 (VPS8 RING domain) | 0
B9 (RNF186 RING domain) | 0
EIKEYKARLTCPCCNTRKKDAVLTKCFHVFCFECVRGRYEARQRKCPKCNAAFGAHDFHR (RNF40 RING domain (UniProt O75150)) | 0
B10 (RNF182 RING domain) | 0
B11 (TRIM41 RING domain) | 0
